Experimental data gathered from unrelated publications.
Lines come from different studies, so protocols differ. ± gives the spread as reported.

With `Cc1ccc(CNC(=O)Cc2ccc(-c3ccc(OCCN4CCOCC4)cc3)cn2)cc1` the half-life was 5.45 ± 1.48 h (ICR mouse; oral, 10 mg/kg).
`CCc1nc(N)nc(N)c1C#C[C@H](C)c1cc(-c2cc(C)nc(C)c2)ccc1Cl` gave a half-life of 4.5 h (mouse, plasma; oral, 16 mg/kg).
For `CCCCCCCCCCCCCCCC(=O)OCC(CSC[C@H](N)C(=O)NCC(=O)N[C@@H](CC(=O)O)C(=O)N1CCC[C@H]1C(=O)N[C@@H](CCCCN)C(=O)N[C@@H](Cc1c[nH]cn1)C(=O)N1CCC[C@H]1C(=O)N[C@@H](CCCCN)C(=O)N[C@@H](CO)C(=O)N[C@@H](Cc1ccccc1)C(=O)O)OC(=O)CCCCCCCCCCCCCCC` (stereo partly drawn), the half-life was roughly 3 h (LC-MS/MS; naive mouse, plasma; subcutaneous, 0.4 to 4.0 mg/kg).
`CCCCCCCCCCCCCCCC(=O)NCCOCCOCCOCCOCCOCCOCCOCCOCCC(=O)NCCCC[C@H](NC(=O)CNC(=O)[C@@H]1CSSC[C@H](N)C(=O)N[C@@H](Cc2ccc(O)cc2)C(=O)N[C@@H]([C@@H](C)CC)C(=O)N[C@@H](CCC(N)=O)C(=O)N[C@@H](CC(N)=O)C(=O)N1)C(=O)NCC(N)=O` gave a half-life of 309 h (male C57BL/6J mouse, plasma; subcutaneous, 20 mg/kg, depot formulation).
With `CCS(=O)(=O)c1ccccc1C(=O)N1CCN(c2nc3ccc(F)cc3s2)C[C@@H]1C` the half-life was 1.23 ± 0.0617 h (mouse; intravenous, 3 mg/kg).
With `Cc1cc2c(c(=O)o1)C=C1CCC(C(C)CNCc3ccc(O)cc3)CC1O2` (stereo not drawn) the half-life was 0.5 h (mouse, plasma; intravenous, dose not given).
`COc1ccc(-c2ccn(CC[C@](C)(C(=O)NO)S(C)(=O)=O)c(=O)c2)c(F)c1` has a half-life of 0.69 ± 0.03 h (CF-1 mouse, female; subcutaneous, 75 mg/kg).
`Clc1ccc(C(c2c[nH]c3ccccc23)c2c[nH]c3ccccc23)cc1` gave a half-life of 4.15 ± 0.383 h (mouse C57BL/6 male, plasma; oral, 25 mg/kg).
`CC(=O)N[C@@H](Cc1cnc[nH]1)C(=O)N[C@H](Cc1ccccc1)C(=O)N[C@@H](CCCNC(=N)N)C(=O)N[C@@H](Cc1c[nH]c2ccccc12)C(=O)NCCCOCCOCCOCCCNC(=O)COCC(=O)N[C@@H](Cc1cnc[nH]1)C(=O)N[C@H](Cc1ccc2ccccc2c1)C(=O)N[C@@H](CCCNC(=N)N)C(=O)N[C@@H](Cc1c[nH]c2ccccc12)C(N)=O` has a half-life of 6.9 h (mouse).
With `Cc1ccc2oc(-c3c4c(N)n[nH]c(=O)c4nn3-c3ccc(NC(=O)/C=C/CN4CCOCC4)cc3)c(C)c2c1` the half-life was 26 h (BALB/c nude mouse, whole blood; 1 µM, 37 °C).
For `Cc1cc(NC(=O)[C@H](O)c2cc(F)cc(F)c2)ccc1-c1cnc(N)c(C(=O)NC(C)C)c1`, the half-life was 2.22 h (athymic nude mouse, female, plasma; oral, 3 to 100 mg/kg).
`Cc1cccc(O[C@H]2CCC[C@@H](C(C)CNCc3ccncc3)C2)c1` (relative stereo) has a half-life of 6.77 h (C57BL/6 mouse female, brain; oral, 25 mg/kg).
The half-life of `CCCCCCC[C@@H](O)CC(=O)N[C@H](CCN)C(=O)N[C@H]1CCNC(=O)[C@H](CC(C)C)NC(=O)[C@H](CCN)NC(=O)[C@H](CCN)NC(=O)[C@H](CC(C)C)NC(=O)[C@@H](Cc2ccccc2)NC(=O)[C@H](CCN)NC1=O` is reported as 6.6 h (mouse; intravenous, 10 mg/kg).
`CN(C(=O)c1ccn2ncc(-c3ccc(C(N)=O)cc3)c2c1)c1ccc(C#N)cn1` has a half-life of 1 to 4 h (CD-1 mouse, Wistar rat, rhesus monkey, plasma; intravenous).
`NC(=O)c1ccc(C(=O)NOCc2ccc(Sc3cccc(Cl)c3)c(C(F)(F)F)c2)cc1` gave a half-life of 0.61 h (male ICR mouse, plasma; intraperitoneal, 30 mg/kg).

Excerpt of the above:
`Cc1cccc(O[C@H]2CCC[C@@H](C(C)CNCc3ccncc3)C2)c1` (relative stereo) has a half-life of 6.77 h (C57BL/6 mouse female, brain; oral, 25 mg/kg).
The half-life of `CCCCCCC[C@@H](O)CC(=O)N[C@H](CCN)C(=O)N[C@H]1CCNC(=O)[C@H](CC(C)C)NC(=O)[C@H](CCN)NC(=O)[C@H](CCN)NC(=O)[C@H](CC(C)C)NC(=O)[C@@H](Cc2ccccc2)NC(=O)[C@H](CCN)NC1=O` is reported as 6.6 h (mouse; intravenous, 10 mg/kg).
